Measurements of several laboratories.
Numbered parts are unrelated; each lists some results of a single study. Substitutions count along the parent as printed.

Sample 1 — technique: RNA Bind-n-Seq; form: RNA; sample: in vitro; tested at: 365 nM; reference: no-protein control; reading: higher = stronger binding
Target: RNA binding protein fox-1 homolog 2, RRM domain, GST-SBP tag (RBFOX2, Homo sapiens, UniProt O43251-10, residues 100-194)
Notes: natural RNA segment, single round, ends assumed
Constant ends, left off below: GGGAGUUCUACAGUCCGACGAUC … UGGAAUUCUCGGGUGCCAA
Construct (chain): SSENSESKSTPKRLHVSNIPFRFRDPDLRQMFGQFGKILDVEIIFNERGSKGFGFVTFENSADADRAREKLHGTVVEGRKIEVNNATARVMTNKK
Strand	RBNS enrichment (R)
AACGUUUCCCUCAGCUCUGUCACCAACUCACUUCUCUCGGCUUCGUUGUCUGUAAAUUGGAUGAAAAGAGCUCUAAUGCCUUUCAGGCUCUUAGAAGCCAUAGAUUUGGA	0.32
CUGAGGACACAGCCAGUUUCUUCAGCACCUCCACAAACUGCACCCCGUCUCUGUCCAUGCACCUCGAUUCACGGCGAGACAUUUAGCCACCACUCUCUGCGUAUUGAUGG	0.296
GGUACUUUGGGGGAACAAAAUAGUCAGGGAUAUUGGUUCCCCUUUGAGGAGGUGCUGCUGUUUGCUUUUAGGUAUGAGUGCUCAGGGGCCCUCACUGAAAGAGCCCAUGC	1.04
CUUAAAUUGCUUUAAUUGUCAUCAAUAAAAACAAAUAUGAAAAACCCUAGUUUAAAAAGCGGUUCAAGAAUAAUGUAAACUUAUACAUAUAGCUUAUUUUCUUCAUUUAC	0.491
UCAAUGGCCAACGAAGGUGCUUGGAAACACCUAACCUUGCAAGUUUUACCGCCUUUUGAGGAACACAAAUCGGAGAACAAACCCAGGGUUCAGGCGUGUUUUCUGUGAAU	0.639
AUUGUUUUGUGACAGUAGAUGUGUUUAUAAUUUGAAGAUACCUGCUCAGAAGGCCAUAUUAUAGAAUGUCAUUUUUAAAAAAUAAAAUAUAAAGCAUACUUUCGAAAUAC	0.92
CUGUUAUUUAUCCCUCAUUCAUCCAUCCGUUCAUUCAUUCAGCCUUCAAUCAACAUCUCUUGAGUGUCUAUUAUGUACAGGACAUGUACUGAGACAAAAAGGAAACAUAA	0.375
GACCUAUCCCACGUUUUUGCAUGAAUUUAUAGCAGGAAAAAUCAAGGGAUUUCCUAUGGAAGUCCUGCUUUAUUCCAGGUGAAGGGAAGGAAGUGUAUAUACUUUUGGCA	3.15

Sample 2 — technique: RNA Bind-n-Seq; form: RNA; sample: in vitro; tested at: 200 nM; notes: whole 134-nt RNA, ends assumed; together with: 150 mM KCl; reference: input library; reading: higher = stronger binding
Target: Fragile X messenger ribonucleoprotein 1, C-terminal low-complexity region (Fmr1, Mus musculus, UniProt P35922)
Constant ends, left off below: GGGAGUUCUACAGUCCGACGAUC … UGGAAUUCUCGGGUGUCAAGG
Strand	log2 enrichment
GGGGACGGCAAAACAGAACAGAAAGGCGGAGAUAAAAAGAGGGGUGUUAAAAGACCACGAGAAGAUCAUGGCCGUGGAUAUUUUGAGUAC	0.566
CUGUGCUACACAUCGUAUGUACCGAAUCGGGAAAAAAAGGGGAAAAAAAGGAAAAAAAGGGGAAAGUAUUAUGUUACGCCGUUCGGAUCU	-0.357
UCCUGUGCUACACAUCGUAUGUACCGAAUCGGAAAAAAGGGGAAAAAAGGAAAAAAGGGGAAAGUAUUAUGUUACGCCGUUCGGAUCUGC	-0.497
CACAGACAACACGCACCCACACAGACACAGAGGGAAGGGGUUGGGGUGGGGACAGGGUGCACAGCAGGGCGGGGUAGGACCCCAGCCCCU	1.24
UAACUUCAGAGGAGGAUCUGAUGGAUAUGGCAGUGGACGUGGAUUUGGGGAUGGCUAUAAUGGGUAUGGAGGAGGACCUGGAGGUGGCAA	0.289
AGUCCUGUGCUACACAUCGUAUGUACCGAAUCGGGGUUUUGGGGUUUUGGGUUUUGGGAAAGUAUUAUGUUACGCCGUUCGGAUCUGCAC	0.565
CACAGACAACACGCACCCACACAGACACAGAGGGAAGGGGUUGGGAUGGGGACAGGGUGCACAGCAGGGCGGGGUAGGACCCCAGUCCCU	1.29
CCUGUGCUACACAUCGUAUGUACCGAAUCGGGAAAAAAAGGGUUUUUGGGAAAAAAAGGGAAAGUAUUAUGUUACGCCGUUCGGAUCUGC	-0.788
UCCUCAAGUCCUGUGCUACACAUCGUAUGUACCGAAUCGGGGCGGCGGCGGGAAAGUAUUAUGUUACGCCGUUCGGAUCUGCACUUCCAG	0.325

Sample 3 — target: CCND3, cyclin fold, Cln2 fusion (human); technique: yeast growth competition, sequencing; sample: yeast; notes: weak parent motif; reference: not given; reading: higher = stronger binding
Starting sequence: LLGL2 docking peptide (human); KSLKKSLRQSFRR
Substitution	normalised enrichment score
ASLKKSLRQSFRR [K1A]	0.0144
KSLKKSLRQSFAR [R12A]	0.491
KALKKSLRQSFRR [S2A]	0.662
KSLKKSLRQSARR [F11A]	-0.107
KSLKKSLRQSFRA [R13A]	0.443
KSLKASLRQSFRR [K5A]	0.217

Mixed results
Molecule	target	test	test system	setting	scale	measurement	value
PhoQ, residues 284 288 289 292 302 303 SSLVEF	PhoP, residues 12 14 15 18 19 NHFIF (Escherichia coli, UniProt P23836)	Sort-seq, measured: YFP reporter	E. coli	PhoQ-PhoP variant library, together with: 10 µM Mg2+	reference: high Mg2+ state, higher = stronger signaling	fold induction	6.39
